Published values pooled from the literature.
Each numbered part is a random draw from the data of one study; scales do not carry over between parts.

Set 1
Target: Ras GTPase-activating protein-binding protein 1, full length (G3BP1, Homo sapiens, UniProt Q13283)
Chain of UniProt Q13283 (whole entry, looked up): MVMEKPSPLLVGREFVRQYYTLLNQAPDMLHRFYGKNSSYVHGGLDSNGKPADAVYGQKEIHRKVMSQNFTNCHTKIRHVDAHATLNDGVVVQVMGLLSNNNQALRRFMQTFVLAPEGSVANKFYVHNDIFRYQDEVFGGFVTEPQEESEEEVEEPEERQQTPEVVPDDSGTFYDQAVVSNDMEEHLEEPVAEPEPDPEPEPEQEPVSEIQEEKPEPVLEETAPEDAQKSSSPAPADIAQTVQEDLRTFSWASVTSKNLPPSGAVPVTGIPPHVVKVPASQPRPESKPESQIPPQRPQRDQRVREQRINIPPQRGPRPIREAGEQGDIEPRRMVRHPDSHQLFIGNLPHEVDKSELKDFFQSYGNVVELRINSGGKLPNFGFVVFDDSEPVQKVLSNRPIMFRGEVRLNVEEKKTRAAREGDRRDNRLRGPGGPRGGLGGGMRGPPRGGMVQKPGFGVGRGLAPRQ
Technique: RNA Bind-n-Seq
Form: RNA
Sample: in vitro
Concentration: 200 nM
Notes: whole 134-nt RNA, ends assumed
With: 150 mM LiCl
Relative to: input library
Reading: higher = stronger binding
Each molecule: 7-deaza-guanosine replaces G
Oligonucleotide	log2 enrichment
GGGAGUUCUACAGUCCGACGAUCCCUCAAGUCCUGUGCUACACAUCGUAUGUACCGAAUCGGAAGGAAGGAAGGGGAAAGUAUUAUGUUACGCCGUUCGGAUCUGCACUUCCAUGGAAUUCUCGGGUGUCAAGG	-0.208
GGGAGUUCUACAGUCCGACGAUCAAGUCCUGUGCUACACAUCGUAUGUACCGAAUCGGUUUUUUUGGAGGUUUUUUUGGAAAGUAUUAUGUUACGCCGUUCGGAUCUGCACUUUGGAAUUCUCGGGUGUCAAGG	-1.13
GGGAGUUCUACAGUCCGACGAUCAAGUCCUGUGCUACACAUCGUAUGUACCGAAUCGGUUUUUGGAAAAAAAGGAAAGGAAAGUAUUAUGUUACGCCGUUCGGAUCUGCACUUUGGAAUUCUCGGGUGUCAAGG	-2.1
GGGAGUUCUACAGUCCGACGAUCGUCCUGUGCUACACAUCGUAUGUACCGAAUCGGAAAAAAGGGAAAAAAGGGAAAAAAGGAAAGUAUUAUGUUACGCCGUUCGGAUCUGCAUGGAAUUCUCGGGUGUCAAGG	-0.511
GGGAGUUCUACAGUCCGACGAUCUGUGAGAUUAAACUUGCCCCCAAACGAUCUCGUUUGGAGACUAGAGCUGGAGAAGAAGAUGAAGGAGAAGAGGAUUCUGAUUCUGAUUAUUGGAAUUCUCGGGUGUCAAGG	-1.37
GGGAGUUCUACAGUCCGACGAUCUAACUUUAGAGGAGGAUCUGAUGGAUAUGGCAGUGGACGUGGAUUGGGGGAUGGCUAUAAUGGGUAUGGAGGAGGACCUGGAGGUGGCAAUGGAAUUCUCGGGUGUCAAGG	-0.0382

Set 2
Target: Histone acetyltransferase KAT6A, winged helix 1, GST fusion (KAT6A, Homo sapiens, UniProt Q92794, residues 1-85)
Technique: protein binding microarray
Form: double-stranded DNA, one strand shown
Sample: in vitro
Concentration: not given
Notes: 8-mer, flanks averaged, mean of 2 arrays, mostly near background
Relative to: not given
Reading: higher = stronger binding
Target sequence (chain): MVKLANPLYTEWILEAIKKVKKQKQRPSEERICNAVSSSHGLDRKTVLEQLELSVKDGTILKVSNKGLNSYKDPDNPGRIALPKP
Oligonucleotide	E-score
GACTTAAC	0.0253
CTCGATAC	0.0104
ACACATCG	-0.232
CCGACAAA	0.0442
GCGCGATA	0.371
TCGCTCAA	0.0396
GGGTTGAC	0.122
ATCAATGA	-0.0574

Set 3
Target: Interferon regulatory factor 3, full length, phosphomimetic (IRF3, Homo sapiens, UniProt Q14653, residues 1-427, S386D/S396D/S398D/S402D/T404D/S405D)
Technique: protein-binding microarray
Form: double-stranded DNA, one strand shown
Sample: in vitro
Concentration: 2540 nM top
Notes: 60-bp whole probe
With: salmon DNA 0.4 mg/ml
Relative to: random background probes
Reading: higher = stronger binding
Shared flanks, not repeated: GCCTAGCAC … GTCTTGATTCGCTTGACGCTGCTG
Construct (chain): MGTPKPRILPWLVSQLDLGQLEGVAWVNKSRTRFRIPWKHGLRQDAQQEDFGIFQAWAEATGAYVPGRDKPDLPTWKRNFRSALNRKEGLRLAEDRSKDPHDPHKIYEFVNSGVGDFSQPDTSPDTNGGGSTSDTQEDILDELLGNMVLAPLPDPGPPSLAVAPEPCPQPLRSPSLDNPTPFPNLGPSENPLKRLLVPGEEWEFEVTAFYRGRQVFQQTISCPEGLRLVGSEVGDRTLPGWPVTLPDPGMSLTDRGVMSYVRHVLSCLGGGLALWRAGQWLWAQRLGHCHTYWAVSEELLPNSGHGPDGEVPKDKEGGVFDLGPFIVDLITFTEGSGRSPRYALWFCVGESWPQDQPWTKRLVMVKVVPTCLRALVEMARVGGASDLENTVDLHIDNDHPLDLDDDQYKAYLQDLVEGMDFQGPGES
Oligonucleotide	fitted relative affinity [z-score]
GACGGTCTCGGACTGAGGACGTGCTAG	0.179
GACGGTTTCGACTATCGGGGCGTGCTA	2.86
TCCTCTTTCACTGCTCCCCAAGTGCTA	1.87
GACGGTTCCCTTTTCCCGACGTGCTAG	6.44
TTAGGTATCGGTCTCGTTTAGTGCTAG	4.68
TTAGTTATCGGGTTTCGGTTAGTGCTA	3.15

Further values, each from its own experiment
Molecule	target	test	system	setting	how to read	quantity	result
PhoQ, residues 284 288 289 292 302 303 SLSLRL	PhoP, residues 12 14 15 18 19 VHTVL (Escherichia coli, UniProt P23836)	Sort-seq, refers to: YFP reporter	E. coli	PhoQ-PhoP variant library, with: 10 µM Mg2+	relative to: high Mg2+ state, higher = stronger signaling	fold induction	75.5

Some of these lines once more (set 2):
Oligonucleotide	E-score
GGGTTGAC	0.122
ATCAATGA	-0.0574
